Experimental data from different studies.
Each numbered part is a random draw from the data of one study; scales do not carry over between parts.
UniProt Q9Y4K4, sequence (whole entry, looked up): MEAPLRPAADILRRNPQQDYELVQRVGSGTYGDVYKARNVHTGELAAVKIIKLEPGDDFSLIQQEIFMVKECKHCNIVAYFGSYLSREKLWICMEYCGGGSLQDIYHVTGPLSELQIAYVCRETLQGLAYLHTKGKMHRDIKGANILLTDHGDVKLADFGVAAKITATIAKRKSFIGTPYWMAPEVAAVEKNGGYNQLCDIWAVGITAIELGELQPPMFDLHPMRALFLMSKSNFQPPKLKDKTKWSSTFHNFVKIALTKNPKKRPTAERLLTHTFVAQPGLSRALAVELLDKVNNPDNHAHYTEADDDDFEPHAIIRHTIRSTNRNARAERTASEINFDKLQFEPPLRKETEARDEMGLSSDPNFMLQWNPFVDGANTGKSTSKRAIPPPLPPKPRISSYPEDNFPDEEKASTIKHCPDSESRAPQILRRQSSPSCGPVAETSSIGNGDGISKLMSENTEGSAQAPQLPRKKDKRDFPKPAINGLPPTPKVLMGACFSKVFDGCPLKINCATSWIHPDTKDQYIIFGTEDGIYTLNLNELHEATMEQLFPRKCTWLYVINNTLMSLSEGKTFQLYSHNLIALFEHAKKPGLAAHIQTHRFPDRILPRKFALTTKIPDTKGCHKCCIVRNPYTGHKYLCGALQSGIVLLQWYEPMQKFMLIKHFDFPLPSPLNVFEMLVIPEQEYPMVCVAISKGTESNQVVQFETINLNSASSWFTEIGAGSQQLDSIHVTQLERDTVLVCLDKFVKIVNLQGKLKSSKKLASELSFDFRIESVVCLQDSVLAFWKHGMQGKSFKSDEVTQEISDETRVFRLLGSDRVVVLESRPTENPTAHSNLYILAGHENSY
UniProt P49674, sequence (whole entry, looked up): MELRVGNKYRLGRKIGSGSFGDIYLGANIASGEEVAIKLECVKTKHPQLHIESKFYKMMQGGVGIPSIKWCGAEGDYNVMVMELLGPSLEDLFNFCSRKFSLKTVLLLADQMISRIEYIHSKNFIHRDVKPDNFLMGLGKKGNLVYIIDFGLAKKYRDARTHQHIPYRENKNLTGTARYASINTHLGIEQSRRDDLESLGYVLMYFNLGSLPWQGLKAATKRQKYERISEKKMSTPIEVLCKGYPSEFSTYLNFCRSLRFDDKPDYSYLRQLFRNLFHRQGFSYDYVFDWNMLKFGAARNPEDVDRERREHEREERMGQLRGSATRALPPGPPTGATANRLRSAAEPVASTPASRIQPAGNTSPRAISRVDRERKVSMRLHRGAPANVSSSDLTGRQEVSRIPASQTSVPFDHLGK
UniProt P35626, sequence (whole entry, looked up): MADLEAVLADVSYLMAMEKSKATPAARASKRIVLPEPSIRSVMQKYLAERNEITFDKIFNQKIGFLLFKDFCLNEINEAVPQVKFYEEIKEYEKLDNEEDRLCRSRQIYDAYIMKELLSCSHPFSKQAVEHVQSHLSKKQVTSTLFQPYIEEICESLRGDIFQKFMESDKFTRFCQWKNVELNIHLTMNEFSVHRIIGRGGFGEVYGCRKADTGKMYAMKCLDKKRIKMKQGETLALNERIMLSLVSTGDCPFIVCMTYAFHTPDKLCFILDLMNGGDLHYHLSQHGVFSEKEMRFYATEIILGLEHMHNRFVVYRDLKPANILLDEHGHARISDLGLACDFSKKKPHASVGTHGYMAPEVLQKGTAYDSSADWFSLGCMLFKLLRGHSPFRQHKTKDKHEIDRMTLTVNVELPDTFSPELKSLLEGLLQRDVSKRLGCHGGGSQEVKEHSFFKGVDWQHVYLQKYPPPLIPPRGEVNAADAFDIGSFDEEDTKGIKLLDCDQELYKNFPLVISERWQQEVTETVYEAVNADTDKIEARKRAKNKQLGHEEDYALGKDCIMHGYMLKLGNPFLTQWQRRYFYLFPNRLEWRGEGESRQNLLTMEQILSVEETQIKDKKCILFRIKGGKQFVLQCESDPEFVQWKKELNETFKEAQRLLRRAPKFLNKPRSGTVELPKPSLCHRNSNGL
UniProt Q8NG66, sequence (whole entry, looked up): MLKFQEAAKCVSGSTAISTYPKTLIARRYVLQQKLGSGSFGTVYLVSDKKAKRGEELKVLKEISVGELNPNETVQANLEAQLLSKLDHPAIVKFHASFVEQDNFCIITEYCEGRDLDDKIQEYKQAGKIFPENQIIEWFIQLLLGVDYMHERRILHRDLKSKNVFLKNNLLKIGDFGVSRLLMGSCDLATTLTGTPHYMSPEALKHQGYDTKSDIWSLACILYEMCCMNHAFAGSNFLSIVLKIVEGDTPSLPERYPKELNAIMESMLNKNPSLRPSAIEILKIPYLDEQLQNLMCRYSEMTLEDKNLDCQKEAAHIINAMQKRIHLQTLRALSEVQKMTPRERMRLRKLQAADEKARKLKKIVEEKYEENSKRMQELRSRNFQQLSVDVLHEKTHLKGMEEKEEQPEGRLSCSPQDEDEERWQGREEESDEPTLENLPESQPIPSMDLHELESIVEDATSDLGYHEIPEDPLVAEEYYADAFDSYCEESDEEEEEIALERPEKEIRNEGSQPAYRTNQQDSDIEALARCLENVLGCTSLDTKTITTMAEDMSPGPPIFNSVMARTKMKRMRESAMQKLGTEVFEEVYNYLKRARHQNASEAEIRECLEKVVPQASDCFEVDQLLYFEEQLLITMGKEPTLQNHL
UniProt Q00532, sequence (whole entry, looked up): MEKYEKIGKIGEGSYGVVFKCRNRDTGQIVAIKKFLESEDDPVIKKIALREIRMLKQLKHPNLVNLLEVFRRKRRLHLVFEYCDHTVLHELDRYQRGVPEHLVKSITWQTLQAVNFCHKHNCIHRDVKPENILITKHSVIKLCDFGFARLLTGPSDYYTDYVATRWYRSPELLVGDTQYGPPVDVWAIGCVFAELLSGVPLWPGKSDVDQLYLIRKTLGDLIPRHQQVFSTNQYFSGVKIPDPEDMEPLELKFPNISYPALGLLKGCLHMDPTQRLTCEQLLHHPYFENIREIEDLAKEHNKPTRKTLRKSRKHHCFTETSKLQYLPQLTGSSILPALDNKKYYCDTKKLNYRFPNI
UniProt Q12851, sequence (whole entry, looked up): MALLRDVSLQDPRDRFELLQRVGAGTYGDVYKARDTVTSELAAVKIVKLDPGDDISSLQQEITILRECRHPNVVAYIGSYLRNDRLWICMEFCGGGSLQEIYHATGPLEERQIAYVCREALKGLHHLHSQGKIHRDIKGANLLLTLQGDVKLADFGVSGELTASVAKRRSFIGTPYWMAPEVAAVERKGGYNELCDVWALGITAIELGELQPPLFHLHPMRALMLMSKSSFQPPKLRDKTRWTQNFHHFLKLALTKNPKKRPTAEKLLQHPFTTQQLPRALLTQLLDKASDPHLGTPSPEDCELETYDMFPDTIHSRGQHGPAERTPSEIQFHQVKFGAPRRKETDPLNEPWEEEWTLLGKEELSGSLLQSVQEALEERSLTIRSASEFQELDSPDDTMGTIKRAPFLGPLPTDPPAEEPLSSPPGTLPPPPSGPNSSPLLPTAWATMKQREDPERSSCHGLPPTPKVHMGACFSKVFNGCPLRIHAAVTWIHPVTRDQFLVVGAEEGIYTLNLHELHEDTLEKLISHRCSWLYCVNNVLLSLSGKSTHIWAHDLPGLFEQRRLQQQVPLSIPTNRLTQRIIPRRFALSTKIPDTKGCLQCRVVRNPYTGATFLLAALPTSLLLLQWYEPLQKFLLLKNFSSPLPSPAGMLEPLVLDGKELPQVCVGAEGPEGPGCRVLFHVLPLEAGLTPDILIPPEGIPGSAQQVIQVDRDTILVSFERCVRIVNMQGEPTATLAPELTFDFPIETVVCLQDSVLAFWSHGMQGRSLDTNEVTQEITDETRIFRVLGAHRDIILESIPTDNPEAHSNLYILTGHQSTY
UniProt Q09013, sequence (whole entry, looked up): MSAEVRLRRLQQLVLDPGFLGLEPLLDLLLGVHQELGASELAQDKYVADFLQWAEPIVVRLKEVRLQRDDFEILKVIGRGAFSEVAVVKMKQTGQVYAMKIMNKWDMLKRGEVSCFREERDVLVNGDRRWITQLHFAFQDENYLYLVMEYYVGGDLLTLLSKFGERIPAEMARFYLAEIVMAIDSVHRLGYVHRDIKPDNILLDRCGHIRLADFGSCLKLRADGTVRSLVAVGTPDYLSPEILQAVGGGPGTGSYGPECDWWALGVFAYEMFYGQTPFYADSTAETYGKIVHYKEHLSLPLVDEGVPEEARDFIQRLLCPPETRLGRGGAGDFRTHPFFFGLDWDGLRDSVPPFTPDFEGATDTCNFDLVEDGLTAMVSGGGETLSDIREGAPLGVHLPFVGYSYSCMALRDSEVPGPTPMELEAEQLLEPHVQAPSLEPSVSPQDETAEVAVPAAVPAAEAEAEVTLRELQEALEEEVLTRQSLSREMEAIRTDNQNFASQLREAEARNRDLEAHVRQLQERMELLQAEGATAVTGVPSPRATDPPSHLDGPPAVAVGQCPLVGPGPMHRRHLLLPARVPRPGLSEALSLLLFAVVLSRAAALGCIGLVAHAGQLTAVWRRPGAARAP

Sample 1
Compound: CS(=O)(=O)N1CCCC(NC(=O)[C@H](CCC2CCCCC2)NC(=O)c2ccc(CNC(=O)c3cnc4ccccn34)cc2)C1 (some centres unmarked)
Observed: cell-free assay
Technique: competition with immobilised ligand
Tested at: 0.1 µM
Endpoint: remaining binding
Tyrosine-protein kinase ABL1, non-phosphorylated (ABL1, Homo sapiens, UniProt P00519, F317L): 32%
Cytoplasmic tyrosine-protein kinase BMX (BMX, Homo sapiens, UniProt P51813): 100%
Mitogen-activated protein kinase kinase kinase kinase 2 (MAP4K2, Homo sapiens, UniProt Q12851): 92%
Myosin-IIIa (MYO3A, Homo sapiens, UniProt Q8NEV4): 99%
MAP kinase-activated protein kinase 2 (MAPKAPK2, Homo sapiens, UniProt P49137): 76%
Serine/threonine-protein kinase 16 (STK16, Homo sapiens, UniProt O75716): 100%
Mitogen-activated protein kinase kinase kinase 11 (MAP3K11, Homo sapiens, UniProt Q16584): 100%
Calcium/calmodulin-dependent protein kinase type II subunit beta (CAMK2B, Homo sapiens, UniProt Q13554): 100%
Serine/threonine-protein kinase ICK (CILK1, Homo sapiens, UniProt Q9UPZ9): 100%
Tyrosine-protein kinase ABL1, non-phosphorylated (ABL1, Homo sapiens, UniProt P00519, T315I): 83%
Myosin-IIIb (MYO3B, Homo sapiens, UniProt Q8WXR4): 89%
Serine/threonine-protein kinase B-raf (BRAF, Homo sapiens, UniProt P15056, V600E): 51%
Receptor tyrosine-protein kinase erbB-3 (ERBB3, Homo sapiens, UniProt P21860): 83%
Vascular endothelial growth factor receptor 3 (FLT4, Homo sapiens, UniProt P35916): 95%
Cyclin-dependent kinase-like 1 (CDKL1, Homo sapiens, UniProt Q00532): 91%
Mitogen-activated protein kinase 1 (MAPK1, Homo sapiens, UniProt P28482): 100%
Receptor-type tyrosine-protein kinase FLT3 (FLT3, Homo sapiens, UniProt P36888, F691L/ITD): 100%
Peripheral plasma membrane protein CASK (CASK, Homo sapiens, UniProt O14936): 100%
Casein kinase I isoform epsilon (CSNK1E, Homo sapiens, UniProt P49674): 93%
Serine/threonine-protein kinase 38 (STK38, Homo sapiens, UniProt Q15208): 81%
Beta-adrenergic receptor kinase 1 (GRK2, Homo sapiens, UniProt P25098): 88%
Non-receptor tyrosine-protein kinase TYK2, JH2 (TYK2, Homo sapiens, UniProt P29597): 86%

Sample 2
SMILES: C=CC(=O)N1CCC[C@@H](n2nc(-c3ccc(Oc4ccccc4)cc3)c3c(N)ncnc32)C1
Mode: inhibitor
Tested at: 1 µM
Endpoint: inhibition
Serine/threonine-protein kinase ULK1 (ULK1, Homo sapiens, UniProt O75385); enzyme activity: 21%
Serine/threonine-protein kinase TAO2 (TAOK2, Homo sapiens, UniProt Q9UL54); enzyme activity: 30%
Ribosomal protein S6 kinase alpha-1, kinase domain 1 (RPS6KA1, Homo sapiens, UniProt Q15418): 29%
Hormonally up-regulated neu tumor-associated kinase (HUNK, Homo sapiens, UniProt P57058); enzyme activity: 9%
Mast/stem cell growth factor receptor Kit (KIT, Homo sapiens, UniProt P10721): 46%
Cyclin-G-associated kinase (GAK, Homo sapiens, UniProt O14976); enzyme activity: 10%
Mitogen-activated protein kinase 6 (MAPK6, Homo sapiens, UniProt Q16659); enzyme activity: 0%
G protein-coupled receptor kinase 3 (GRK3, Homo sapiens, UniProt P35626); enzyme activity: 8%
Ephrin type-A receptor 1 (EPHA1, Homo sapiens, UniProt P21709): 48%
Epidermal growth factor receptor (EGFR, Homo sapiens, UniProt P00533, del747-750/T751S): 97%
Dual specificity mitogen-activated protein kinase kinase 4 (MAP2K4, Homo sapiens, UniProt P45985): 0%
Serine/threonine-protein kinase PAK 5 (PAK5, Homo sapiens, UniProt Q9P286); enzyme activity: 23%
AP2-associated protein kinase 1 (AAK1, Homo sapiens, UniProt Q2M2I8); enzyme activity: 1%

Sample 3
Target: Mitogen-activated protein kinase kinase kinase 7 (MAP3K7, Homo sapiens, UniProt O43318)
UniProt O43318, sequence (whole entry, looked up): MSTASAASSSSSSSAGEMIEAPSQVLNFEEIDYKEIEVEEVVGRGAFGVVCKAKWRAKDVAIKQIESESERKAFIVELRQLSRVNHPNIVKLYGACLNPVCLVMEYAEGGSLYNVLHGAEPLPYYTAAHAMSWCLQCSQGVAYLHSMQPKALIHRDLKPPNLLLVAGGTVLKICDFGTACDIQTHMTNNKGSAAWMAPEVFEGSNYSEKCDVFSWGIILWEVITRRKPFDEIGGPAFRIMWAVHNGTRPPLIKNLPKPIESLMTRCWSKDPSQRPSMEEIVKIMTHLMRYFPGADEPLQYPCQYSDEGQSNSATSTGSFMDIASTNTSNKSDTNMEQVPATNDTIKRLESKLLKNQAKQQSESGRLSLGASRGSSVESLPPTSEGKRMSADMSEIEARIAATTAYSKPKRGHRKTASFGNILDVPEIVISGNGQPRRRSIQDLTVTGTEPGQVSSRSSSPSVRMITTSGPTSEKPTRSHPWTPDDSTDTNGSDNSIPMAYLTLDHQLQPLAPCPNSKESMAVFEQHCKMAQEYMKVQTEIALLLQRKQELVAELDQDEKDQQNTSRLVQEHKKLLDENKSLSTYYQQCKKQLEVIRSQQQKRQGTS
Observed: enzyme activity
Mode: inhibitor
Tested at: 0.5 µM
Baseline: control
Endpoint: remaining activity
COc1cc2c(Nc3ccc(Br)cc3F)ncnc2cc1OCC1CCN(C)CC1: 93.9%
COc1cc2c(N3CCN(C(=O)Nc4ccc(OC(C)C)cc4)CC3)ncnc2cc1OCCCN1CCCCC1: 91.8%
O=C1c2ccccc2-c2nc3nnnn3nc21: 89.8%
O=C1NC(=O)/C(=C/c2ccc3c(c2)OC(F)(F)O3)S1: 95.3%
CCN(CC)CCCCN1c2ccccc2Oc2ccc(Cl)cc21: 102%
O=C(c1ccccc1)c1ccc(N2CCOCC2)cc1O: 101%
Clc1ccc(Nc2nnc(Cc3ccncc3)c3ccccc23)cc1: 99.6%
FC(F)(F)c1ccc(/C=C/c2nc(COc3ccc(CCCCn4ccnn4)cc3)co2)cc1: 88.7%
C[C@@H](N)[C@H]1CC[C@H](C(=O)Nc2ccncc2)CC1: 96.8%
O=c1c(-c2ccc(F)cc2)c(-c2ccncc2)[nH]n1-c1ccc(Cl)cc1: 100%
N#CC(c1ccnc(NCCc2cccnc2)n1)c1nc2ccccc2s1 (centres unmarked): 91.5%
c1cc(-c2cnn3cc(-c4ccc(OCCN5CCCCC5)cc4)cnc23)ccn1: 49.7%
N#C/C(=C(/N)SC1C=CC=CC1)c1cccc(C(O)c2ccncc2)c1 (centres unmarked): 108%
CNc1cc2c(Nc3cccc(Br)c3)ncnc2cn1: 94.9%
O=C(O)/C=C/c1cc(Br)c(Br)c(Br)c1Br: 98.4%
CCCCc1c(-c2ccc(O)cc2)[nH]c2nccnc12: 80.3%
CC(C)N(CCC(=O)c1ccc2ccccc2c1)Cc1ccccc1: 95.4%
Nc1nc(Nc2ccc(S(N)(=O)=O)cc2)nn1C(=S)Nc1c(F)cccc1F: 12.5%
CC(C)(C)c1nc2c3cc[nH]c(=O)c3c3cc(F)ccc3c2[nH]1: 46.6%
CC(C)n1cnc2c(Nc3cccc(Cl)c3)nc(NCCO)nc21: 92.7%
NC(=O)c1ccc(-c2nc(-c3ccc4c(c3)OCCO4)c(-c3ccccn3)[nH]2)cc1: 104%
NC(=O)c1cccc(-c2cc(Nc3ccc(OC(F)(F)F)cc3)ncn2)c1: 99.1%

Sample 4
Structure (SMILES): CN1CCN(C(=O)c2ccc(NC(=O)Nc3ccc(N(C)c4ccnc(Nc5ccc(CS(C)(=O)=O)cc5)n4)cc3)cc2)CC1
Tested at: 1 µM
Endpoint: remaining binding
Serine/threonine-protein kinase Nek11 (NEK11, Homo sapiens, UniProt Q8NG66); competitive binding panel; baseline: vehicle: 100%
SRSF protein kinase 1 (SRPK1, Homo sapiens, UniProt Q96SB4); competitive binding panel; baseline: vehicle: 2.3%
Serine/threonine-protein kinase 26 (STK26, Homo sapiens, UniProt Q9P289); competitive binding panel, item: MST4; baseline: vehicle: 11%
Mitogen-activated protein kinase kinase kinase kinase 5 (MAP4K5, Homo sapiens, UniProt Q9Y4K4); competitive binding panel; baseline: vehicle: 32%
Tyrosine-protein kinase Fer (FER, Homo sapiens, UniProt P16591); competitive binding panel; baseline: vehicle: 46%
Inhibitor of nuclear factor kappa-B kinase subunit alpha (CHUK, Homo sapiens, UniProt O15111); competitive binding; IKK-alpha: 90%
Myotonin-protein kinase (DMPK, Homo sapiens, UniProt Q09013); competitive binding panel; baseline: vehicle: 100%
3-phosphoinositide-dependent protein kinase 1 (PDPK1, Homo sapiens, UniProt O15530); competitive binding panel; baseline: vehicle: 68%
Interleukin-1 receptor-associated kinase 1 (IRAK1, Homo sapiens, UniProt P51617); competitive binding panel; baseline: vehicle: 58%
Protein kinase C theta type (PRKCQ, Homo sapiens, UniProt Q04759); competitive binding panel; baseline: vehicle: 51%
Serine/threonine-protein kinase Nek10 (NEK10, Homo sapiens, UniProt Q6ZWH5); competitive binding panel; baseline: vehicle: 94%
Mitogen-activated protein kinase kinase kinase 13 (MAP3K13, Homo sapiens, UniProt O43283); competitive binding; LZK: 70%
Casein kinase I isoform alpha-like (CSNK1A1L, Homo sapiens, UniProt Q8N752); competitive binding panel; baseline: vehicle: 100%
Tyrosine-protein kinase ABL1 (ABL1, Homo sapiens, UniProt P00519, Y253F); competitive binding panel; baseline: vehicle: 20%
Mitotic checkpoint serine/threonine-protein kinase BUB1 (BUB1, Homo sapiens, UniProt O43683); competitive binding panel; baseline: vehicle: 46%
Serine/threonine-protein kinase Sgk1 (SGK1, Homo sapiens, UniProt O00141); competitive binding; SGK: 57%
Tyrosine-protein kinase FRK (FRK, Homo sapiens, UniProt P42685); competitive binding panel; baseline: vehicle: 80%

A few entries again (sample 3):
FC(F)(F)c1ccc(/C=C/c2nc(COc3ccc(CCCCn4ccnn4)cc3)co2)cc1: 88.7%
C[C@@H](N)[C@H]1CC[C@H](C(=O)Nc2ccncc2)CC1: 96.8%
O=c1c(-c2ccc(F)cc2)c(-c2ccncc2)[nH]n1-c1ccc(Cl)cc1: 100%
N#CC(c1ccnc(NCCc2cccnc2)n1)c1nc2ccccc2s1 (centres unmarked): 91.5%
